{"data": "Measured values collected from several papers", "note": "Numbered parts are unrelated; each lists some results of a single study. Values joined by “and” are separate records of one study, mostly repeats; a detail may differ.", "sequence of UniProt P10721 (whole entry, looked up)": "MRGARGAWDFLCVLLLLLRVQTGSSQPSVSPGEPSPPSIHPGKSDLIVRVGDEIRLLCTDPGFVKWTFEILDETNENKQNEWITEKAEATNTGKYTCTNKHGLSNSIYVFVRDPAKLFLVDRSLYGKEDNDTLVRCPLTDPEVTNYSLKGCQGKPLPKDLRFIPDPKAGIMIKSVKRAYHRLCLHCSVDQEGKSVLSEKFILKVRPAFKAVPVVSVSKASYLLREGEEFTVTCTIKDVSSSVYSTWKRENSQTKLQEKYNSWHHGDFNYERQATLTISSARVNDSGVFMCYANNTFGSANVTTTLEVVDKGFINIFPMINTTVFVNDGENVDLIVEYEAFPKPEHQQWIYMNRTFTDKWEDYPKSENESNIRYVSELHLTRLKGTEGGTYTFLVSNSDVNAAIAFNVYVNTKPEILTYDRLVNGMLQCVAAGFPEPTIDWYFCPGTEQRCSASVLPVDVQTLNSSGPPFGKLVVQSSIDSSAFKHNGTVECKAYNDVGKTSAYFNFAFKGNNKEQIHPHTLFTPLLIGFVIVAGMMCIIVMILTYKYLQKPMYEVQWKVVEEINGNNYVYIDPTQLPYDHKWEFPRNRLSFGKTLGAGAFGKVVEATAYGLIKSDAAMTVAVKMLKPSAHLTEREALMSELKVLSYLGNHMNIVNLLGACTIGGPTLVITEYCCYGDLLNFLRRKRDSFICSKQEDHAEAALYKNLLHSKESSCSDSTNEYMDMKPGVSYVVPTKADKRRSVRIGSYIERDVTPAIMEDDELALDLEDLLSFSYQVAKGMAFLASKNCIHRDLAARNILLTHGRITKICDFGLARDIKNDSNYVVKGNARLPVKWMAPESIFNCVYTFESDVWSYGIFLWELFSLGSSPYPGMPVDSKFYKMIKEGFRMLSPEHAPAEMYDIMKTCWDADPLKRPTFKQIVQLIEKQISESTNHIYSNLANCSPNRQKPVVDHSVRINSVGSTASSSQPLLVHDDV", "sequence of UniProt Q9Y2K2 (whole entry, looked up)": "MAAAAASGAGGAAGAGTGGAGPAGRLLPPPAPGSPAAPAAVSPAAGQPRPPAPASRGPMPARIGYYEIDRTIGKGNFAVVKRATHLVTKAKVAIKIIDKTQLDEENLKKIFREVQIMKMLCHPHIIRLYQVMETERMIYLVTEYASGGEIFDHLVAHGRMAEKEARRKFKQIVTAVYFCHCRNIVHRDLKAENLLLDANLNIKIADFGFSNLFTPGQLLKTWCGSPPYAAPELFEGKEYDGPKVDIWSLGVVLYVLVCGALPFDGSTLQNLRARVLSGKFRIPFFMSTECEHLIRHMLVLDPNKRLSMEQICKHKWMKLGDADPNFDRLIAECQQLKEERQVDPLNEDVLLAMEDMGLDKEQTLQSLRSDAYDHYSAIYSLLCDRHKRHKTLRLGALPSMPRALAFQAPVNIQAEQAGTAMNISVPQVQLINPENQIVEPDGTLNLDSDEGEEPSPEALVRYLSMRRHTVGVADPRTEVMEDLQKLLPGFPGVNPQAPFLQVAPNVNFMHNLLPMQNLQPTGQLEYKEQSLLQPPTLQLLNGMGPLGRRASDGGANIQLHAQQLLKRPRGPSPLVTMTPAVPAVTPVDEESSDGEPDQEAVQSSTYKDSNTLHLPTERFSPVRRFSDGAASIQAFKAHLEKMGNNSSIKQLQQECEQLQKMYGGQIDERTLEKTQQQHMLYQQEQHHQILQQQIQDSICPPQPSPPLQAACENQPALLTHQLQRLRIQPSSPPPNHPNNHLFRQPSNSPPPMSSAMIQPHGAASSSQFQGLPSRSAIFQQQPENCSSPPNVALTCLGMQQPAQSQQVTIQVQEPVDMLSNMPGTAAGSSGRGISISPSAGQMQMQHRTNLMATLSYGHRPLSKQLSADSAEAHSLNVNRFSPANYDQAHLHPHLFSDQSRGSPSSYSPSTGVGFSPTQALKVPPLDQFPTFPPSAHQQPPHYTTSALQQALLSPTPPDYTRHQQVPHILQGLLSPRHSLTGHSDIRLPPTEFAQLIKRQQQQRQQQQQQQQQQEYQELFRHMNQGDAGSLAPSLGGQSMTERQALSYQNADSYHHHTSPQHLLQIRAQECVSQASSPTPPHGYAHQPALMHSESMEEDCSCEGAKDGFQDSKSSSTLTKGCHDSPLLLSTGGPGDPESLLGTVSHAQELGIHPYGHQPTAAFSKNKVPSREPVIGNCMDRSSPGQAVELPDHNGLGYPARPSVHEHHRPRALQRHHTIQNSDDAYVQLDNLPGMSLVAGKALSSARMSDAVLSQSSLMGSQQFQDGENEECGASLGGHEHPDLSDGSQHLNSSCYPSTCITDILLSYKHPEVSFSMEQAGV", "sequence of UniProt P42681 (whole entry, looked up)": "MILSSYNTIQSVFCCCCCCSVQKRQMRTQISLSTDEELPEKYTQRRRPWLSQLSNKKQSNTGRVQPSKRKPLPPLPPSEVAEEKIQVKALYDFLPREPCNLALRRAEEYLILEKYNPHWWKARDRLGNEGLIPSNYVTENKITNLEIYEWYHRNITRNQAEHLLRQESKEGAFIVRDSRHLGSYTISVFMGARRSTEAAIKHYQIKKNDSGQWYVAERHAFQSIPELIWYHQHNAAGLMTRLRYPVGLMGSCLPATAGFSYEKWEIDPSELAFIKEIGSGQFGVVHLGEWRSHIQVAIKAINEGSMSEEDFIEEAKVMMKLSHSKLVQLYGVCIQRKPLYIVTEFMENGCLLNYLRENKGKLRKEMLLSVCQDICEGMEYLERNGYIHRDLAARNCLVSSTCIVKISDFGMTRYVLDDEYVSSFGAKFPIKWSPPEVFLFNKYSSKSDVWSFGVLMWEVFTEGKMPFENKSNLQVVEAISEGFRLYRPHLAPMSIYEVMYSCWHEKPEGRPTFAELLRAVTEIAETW", "sequence of UniProt P49759 (whole entry, looked up)": "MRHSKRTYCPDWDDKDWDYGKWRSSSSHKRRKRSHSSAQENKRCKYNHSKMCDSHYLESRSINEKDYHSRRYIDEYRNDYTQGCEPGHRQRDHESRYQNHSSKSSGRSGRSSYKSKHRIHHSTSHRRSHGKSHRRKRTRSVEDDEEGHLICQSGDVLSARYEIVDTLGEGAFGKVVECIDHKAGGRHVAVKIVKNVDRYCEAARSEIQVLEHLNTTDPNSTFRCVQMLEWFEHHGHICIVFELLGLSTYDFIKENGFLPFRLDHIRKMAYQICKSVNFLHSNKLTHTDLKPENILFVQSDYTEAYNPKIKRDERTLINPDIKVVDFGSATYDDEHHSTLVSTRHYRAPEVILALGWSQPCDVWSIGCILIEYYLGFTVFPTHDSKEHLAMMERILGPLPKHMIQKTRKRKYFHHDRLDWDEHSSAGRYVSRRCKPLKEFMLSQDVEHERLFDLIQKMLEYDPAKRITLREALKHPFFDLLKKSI", "sequence of UniProt P53779 (whole entry, looked up)": "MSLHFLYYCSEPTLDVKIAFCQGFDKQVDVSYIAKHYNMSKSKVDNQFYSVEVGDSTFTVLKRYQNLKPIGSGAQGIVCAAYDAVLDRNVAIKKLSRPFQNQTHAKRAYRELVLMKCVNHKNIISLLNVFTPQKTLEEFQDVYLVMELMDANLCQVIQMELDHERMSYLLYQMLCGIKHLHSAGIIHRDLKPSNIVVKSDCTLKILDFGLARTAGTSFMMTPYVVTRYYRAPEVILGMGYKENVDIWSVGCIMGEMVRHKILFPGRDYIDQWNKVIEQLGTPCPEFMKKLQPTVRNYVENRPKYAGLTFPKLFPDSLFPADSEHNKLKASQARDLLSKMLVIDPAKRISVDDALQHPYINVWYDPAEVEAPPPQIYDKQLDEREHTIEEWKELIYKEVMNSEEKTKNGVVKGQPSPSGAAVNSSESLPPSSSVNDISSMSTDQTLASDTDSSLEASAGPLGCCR", "sequence of UniProt P51812 (whole entry, looked up)": "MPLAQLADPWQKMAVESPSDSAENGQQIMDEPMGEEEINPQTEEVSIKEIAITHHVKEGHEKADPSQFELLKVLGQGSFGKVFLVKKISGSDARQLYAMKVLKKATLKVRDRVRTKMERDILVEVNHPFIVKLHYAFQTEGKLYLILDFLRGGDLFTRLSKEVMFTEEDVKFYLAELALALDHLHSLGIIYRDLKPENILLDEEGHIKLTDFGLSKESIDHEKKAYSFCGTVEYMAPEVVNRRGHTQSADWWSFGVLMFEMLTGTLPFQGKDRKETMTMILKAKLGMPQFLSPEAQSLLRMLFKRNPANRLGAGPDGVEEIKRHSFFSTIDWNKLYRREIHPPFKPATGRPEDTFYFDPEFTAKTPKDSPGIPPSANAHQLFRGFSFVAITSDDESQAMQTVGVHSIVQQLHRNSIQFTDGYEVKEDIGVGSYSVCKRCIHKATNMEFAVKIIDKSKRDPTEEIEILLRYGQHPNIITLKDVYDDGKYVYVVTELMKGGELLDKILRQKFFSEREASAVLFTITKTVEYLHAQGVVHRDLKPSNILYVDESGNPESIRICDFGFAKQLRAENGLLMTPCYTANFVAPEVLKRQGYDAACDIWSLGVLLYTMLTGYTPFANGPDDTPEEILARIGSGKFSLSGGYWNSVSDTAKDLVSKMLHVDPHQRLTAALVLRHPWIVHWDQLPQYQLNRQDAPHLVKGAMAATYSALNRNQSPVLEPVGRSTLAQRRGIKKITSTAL"}
{"data": "Series 1", "target": "Calcium/calmodulin-dependent protein kinase type II subunit alpha (CAMK2A, Homo sapiens, UniProt Q9UQM7)", "observed": "enzyme activity", "mode": "inhibitor", "tested at": "0.5 µM", "baseline": "control", "sequence of UniProt Q9UQM7 (whole entry, looked up)": "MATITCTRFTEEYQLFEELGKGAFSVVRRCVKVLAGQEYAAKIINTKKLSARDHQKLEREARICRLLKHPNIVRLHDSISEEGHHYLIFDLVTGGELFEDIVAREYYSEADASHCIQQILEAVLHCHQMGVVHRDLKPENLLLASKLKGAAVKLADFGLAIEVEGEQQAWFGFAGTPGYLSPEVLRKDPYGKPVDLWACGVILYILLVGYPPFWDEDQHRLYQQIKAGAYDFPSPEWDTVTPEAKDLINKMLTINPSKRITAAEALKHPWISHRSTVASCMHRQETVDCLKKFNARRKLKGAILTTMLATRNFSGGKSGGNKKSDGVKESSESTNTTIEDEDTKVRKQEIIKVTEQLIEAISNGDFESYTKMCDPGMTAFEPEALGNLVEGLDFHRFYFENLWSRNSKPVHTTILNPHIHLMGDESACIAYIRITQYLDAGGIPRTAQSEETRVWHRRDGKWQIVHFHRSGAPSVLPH"}
{"Compound": "O=C1Nc2ccc(Br)cc2/C1=C/c1cc2c([nH]1)CCCC2", "remaining activity": "93.3%"}
{"Compound": "CCCCc1c(-c2ccc(OC)cc2)[nH]c2nccnc12", "remaining activity": "100%"}
{"Compound": "Cc1ccc(S(=O)(=O)/C=C/C#N)cc1", "remaining activity": "103%"}
{"Compound": "CN(C)S(=O)(=O)c1ccc2c(c1)/C(=C/c1cc3c([nH]1)CCCC3)C(=O)N2", "remaining activity": "61.4%"}
{"Compound": "Oc1cccc(-c2nc(N3CCOCC3)c3oc4ncccc4c3n2)c1", "remaining activity": "93.7%"}
{"Compound": "O=C1Nc2ccccc2/C1=C\\c1c(Cl)[nH]c2ccccc12", "remaining activity": "103%"}
{"data": "Series 2", "SMILES": "CS(=O)(=O)N1CCCC(NC(=O)[C@H](CCC2CCCCC2)NC(=O)c2ccc(CNC(=O)c3cnc4ccccn34)cc2)C1 (some centres unmarked)", "observed": "cell-free assay", "method": "competition with immobilised ligand", "tested at": "0.1 µM"}
{"target": "Phosphatidylinositol 4,5-bisphosphate 3-kinase catalytic subunit alpha isoform (PIK3CA, Homo sapiens, UniProt P42336, H1047Y)", "remaining binding": "84%"}
{"target": "Serine/threonine-protein kinase SIK3 (SIK3, Homo sapiens, UniProt Q9Y2K2)", "remaining binding": "100%"}
{"target": "Activin receptor type-2A (ACVR2A, Homo sapiens, UniProt P27037)", "remaining binding": "100%"}
{"target": "Mitogen-activated protein kinase 10 (MAPK10, Homo sapiens, UniProt P53779)", "remaining binding": "85%"}
{"target": "Epidermal growth factor receptor (EGFR, Homo sapiens, UniProt P00533, L858R/T790M)", "remaining binding": "100%"}
{"target": "Mast/stem cell growth factor receptor Kit, autoinhibited (KIT, Homo sapiens, UniProt P10721)", "remaining binding": "100%"}
{"target": "Ephrin type-A receptor 3 (EPHA3, Homo sapiens, UniProt P29320)", "remaining binding": "97%"}
{"target": "Tyrosine-protein kinase TXK (TXK, Homo sapiens, UniProt P42681)", "remaining binding": "91%"}
{"target": "Dual specificity tyrosine-phosphorylation-regulated kinase 1A (DYRK1A, Homo sapiens, UniProt Q13627)", "remaining binding": "100%"}
{"target": "Activin receptor type-2B (ACVR2B, Homo sapiens, UniProt Q13705)", "remaining binding": "100%"}
{"target": "Mitogen-activated protein kinase kinase kinase kinase 3 (MAP4K3, Homo sapiens, UniProt Q8IVH8)", "remaining binding": "87%"}
{"target": "Ribosomal protein S6 kinase alpha-3, N-terminal kinase domain (RPS6KA3, Homo sapiens, UniProt P51812)", "remaining binding": "100%"}
{"target": "Receptor-type tyrosine-protein kinase FLT3 (FLT3, Homo sapiens, UniProt P36888, D835H)", "remaining binding": "100%"}
{"target": "Dual specificity protein kinase CLK1 (CLK1, Homo sapiens, UniProt P49759)", "remaining binding": "86%"}
{"target": "Serine/threonine-protein kinase WNK2 (WNK2, Homo sapiens, UniProt Q9Y3S1)", "remaining binding": "100%"}
{"data": "Series 3", "species": "human", "matrix": "microsomes or S9", "tested at": "2 µM", "time": "0.5 h"}
{"Structure (SMILES)": "COc1ccc2[nH]cc(CCN3C(=O)c4[nH]nc(-c5ccco5)c4C3c3cccc(O)c3)c2c1 (centres unmarked)", "remaining compound": "4.93%"}
{"Structure (SMILES)": "COc1cc2c(c(OC)c1)C1(CC(C)(C)N2)CC(C)(C)Nc2cc(OC)cc(OC)c21", "remaining compound": "70.6%"}
{"Structure (SMILES)": "COCCc1noc(CN2CC[C@H]3[C@H](C2)OCc2cnnn23)n1", "remaining compound": "95.8%"}
{"Structure (SMILES)": "O=C1c2ccccc2C2CC(c3ccc(-c4ccccc4)cc3)=NN12 (centres unmarked)", "remaining compound": "34.8%"}
{"Structure (SMILES)": "CC(C)Nc1ncc2scc(COc3cccc4ncccc34)c2n1", "remaining compound": "9.12%"}
{"Structure (SMILES)": "CCCN(CCC)C(=O)c1cccc(C(=O)NN(Cc2ccc(Br)cc2)C(=O)CN[C@H](C(=O)NCc2cccc(OC)c2)C(C)C)c1", "remaining compound": "7.91%"}
{"Structure (SMILES)": "CC(=O)c1cccc(NC(=O)c2ccc(C(C)(C)C)cc2)c1", "remaining compound": "27.4%"}
{"Structure (SMILES)": "O=C(COc1ncccn1)NCCNc1cc(-n2cccn2)ncn1", "remaining compound": "94.6%"}
{"Structure (SMILES)": "O=C1C2CC=CCC2C(O)=NN1c1cccc(F)c1 (centres unmarked)", "remaining compound": "> 99.9%"}
{"Structure (SMILES)": "COc1cc(OC)c2nc(N3C[C@@H](NC(C)=O)[C@H](C(C)C)C3)cc(C)c2c1", "remaining compound": "> 99%"}
{"data": "Single results of other studies"}
{"Structure (SMILES)": "CC(C)C[C@@H]1NC(=O)[C@@H](N(C)C(=O)[C@H](CC2CCC2)NC(=O)[C@@H]2C[C@@H](F)CN2C(=O)C2(C(F)(F)F)CC(F)(F)C2)CCCCNC(=O)C2(CC2)NC(=O)[C@H](Cc2cc(Cl)ccc2Cl)N(C)C1=O", "cell line": "NCI-H446", "test": "Vi-Cell counting", "setting": "200 nM, 3 days, with: Mps1 inhibitor 3 nM", "scale": "baseline: DMSO", "measurement": "cell count", "result": "0.5 and 0.473"}
{"note": "Repeated from above (series 2):"}
{"target": "Phosphatidylinositol 4,5-bisphosphate 3-kinase catalytic subunit alpha isoform (PIK3CA, Homo sapiens, UniProt P42336, H1047Y)", "remaining binding": "84%"}
{"target": "Activin receptor type-2A (ACVR2A, Homo sapiens, UniProt P27037)", "remaining binding": "100%"}
